Assay results from different studies.
Compare with care: the assays were run in different laboratories. Values after ≈ are worked out from the molar mass of the structure shown.
Cell line: Vero

Structure (SMILES)	test	system	conditions	measurement	value
CSCC[C@H](NC(=O)[C@@H](NC(C)=O)C(C)C)C(=O)N1CCC[C@H]1C(=O)N[C@@H](Cc1c[nH]c2ccccc12)C(=O)N[C@@H](CC(=O)O)C(=O)N[C@@H](CCC(=O)O)C(=O)N[C@@H](Cc1c[nH]c2ccccc12)C(=O)N[C@@H](CC(C)C)C(=O)N[C@H](C(=O)N[C@@H](CCCCN)C(=O)N[C@@H](CCCNC(=N)N)C(=O)N[C@@H](CCCCN)C(=O)N1CCC[C@H]1C(=O)N[C@@H](CCC(=O)O)C(=O)N[C@@H](CC(C)C)C(=O)N1CCC[C@H]1C(N)=O)[C@@H](C)O	–	–	100 µM, overnight	viability	28%
COC(=O)c1cc2c(=O)n3ccccc3nc2n1Cc1ccccc1	MTT	–	0.4 µM, 24 (unit not given)	viability	86.5%
Oc1cc(Cn2ccnn2)ccc1Oc1ccc(Cl)cc1Cl	cytotoxicity	–	–	IC50	1 µg/mL (≈ 2.97 µM)
C[C@@H]1O[C@@H](n2ccc(N)nc2=O)[C@H](I)[C@H](OCc2ccccc2)[C@H]1OCc1ccccc1	MTT	DMEM with 10% FBS	72 h	CC50	> 50 µM
CCCCCCNCc1ccc(Oc2ccc(Cl)cc2Cl)c(O)c1	cytotoxicity	–	–	IC50	4 µg/mL (≈ 10.9 µM)
Cc1cn([C@@H]2O[C@@H](C)[C@H](OCc3ccccc3)[C@@H](OCc3ccccc3)[C@H]2I)c(=O)[nH]c1=O	MTT	DMEM with 10% FBS	72 h	CC50	> 50 µM
CC(C)C[C@H](NC(=O)[C@H](CC(C)C)NC(=O)[C@H](CCCCN)NC(=O)CNC(=O)[C@H](CC(C)C)NC(=O)CNC(=O)[C@H](CO)NC(=O)[C@H](CC(C)C)NC(=O)[C@H](CC(C)C)NC(=O)[C@H](CO)NC(=O)[C@H](CCCCN)NC(=O)[C@H](CC(C)C)NC(=O)[C@H](CCCCN)NC(=O)[C@H](CCCCN)NC(=O)[C@H](C)NC(=O)[C@H](C)NC(=O)[C@H](C)NC(=O)CNC(=O)[C@H](CO)NC(=O)[C@H](Cc1c[nH]c2ccccc12)NC(=O)[C@@H](N)CCCCN)C(=O)O	MTS	–	24 h	TC50	> 100 µM
O=c1ccn([C@@H]2O[C@H](CO)[C@@H](O)[C@H](O)[C@H]2I)c(=O)[nH]1	MTT	DMEM with 10% FBS	72 h	CC50	> 25 µM
Cc1noc(C)c1S(=O)(=O)N1CCCC2(C1)Nc1cccnc1N=C2NC1CCCC1 (stereo not drawn)	–	–	72 (unit not given)	CC50	85.2 µM

Excerpt of the above:
Structure (SMILES)	test	system	conditions	measurement	value
COC(=O)c1cc2c(=O)n3ccccc3nc2n1Cc1ccccc1	MTT	–	0.4 µM, 24 (unit not given)	viability	86.5%
